# Assay results from different studies.
# ± gives the spread as reported.
# CHRM2: Muscarinic acetylcholine receptor M2 (CHRM2, Homo sapiens, UniProt P08172)
# UniProt P08172, sequence (whole entry, looked up): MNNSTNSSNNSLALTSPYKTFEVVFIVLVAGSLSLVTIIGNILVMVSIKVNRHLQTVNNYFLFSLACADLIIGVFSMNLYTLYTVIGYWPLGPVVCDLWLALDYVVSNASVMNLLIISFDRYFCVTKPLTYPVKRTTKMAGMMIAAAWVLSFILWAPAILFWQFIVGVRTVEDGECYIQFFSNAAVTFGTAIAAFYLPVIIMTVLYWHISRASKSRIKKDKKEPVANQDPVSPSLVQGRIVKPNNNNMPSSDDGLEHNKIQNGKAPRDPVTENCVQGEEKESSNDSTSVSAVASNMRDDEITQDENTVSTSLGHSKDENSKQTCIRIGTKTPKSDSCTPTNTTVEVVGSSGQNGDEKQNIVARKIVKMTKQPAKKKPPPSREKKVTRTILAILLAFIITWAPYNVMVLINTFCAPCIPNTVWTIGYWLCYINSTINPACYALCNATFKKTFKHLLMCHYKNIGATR
# Rhomboid protease AarA: Rhomboid protease AarA (Providencia stuartii, UniProt P46116)
# UniProt P46116, sequence (whole entry, looked up): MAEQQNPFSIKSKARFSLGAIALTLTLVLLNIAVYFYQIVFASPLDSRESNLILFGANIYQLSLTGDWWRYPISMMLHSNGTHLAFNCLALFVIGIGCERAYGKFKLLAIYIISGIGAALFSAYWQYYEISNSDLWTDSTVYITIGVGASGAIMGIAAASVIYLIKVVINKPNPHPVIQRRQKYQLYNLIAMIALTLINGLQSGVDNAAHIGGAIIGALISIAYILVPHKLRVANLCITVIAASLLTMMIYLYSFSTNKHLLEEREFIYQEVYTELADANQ
# HDAC1: Histone deacetylase 1 (HDAC1, Homo sapiens, UniProt Q13547)
# UniProt Q13547, sequence (whole entry, looked up): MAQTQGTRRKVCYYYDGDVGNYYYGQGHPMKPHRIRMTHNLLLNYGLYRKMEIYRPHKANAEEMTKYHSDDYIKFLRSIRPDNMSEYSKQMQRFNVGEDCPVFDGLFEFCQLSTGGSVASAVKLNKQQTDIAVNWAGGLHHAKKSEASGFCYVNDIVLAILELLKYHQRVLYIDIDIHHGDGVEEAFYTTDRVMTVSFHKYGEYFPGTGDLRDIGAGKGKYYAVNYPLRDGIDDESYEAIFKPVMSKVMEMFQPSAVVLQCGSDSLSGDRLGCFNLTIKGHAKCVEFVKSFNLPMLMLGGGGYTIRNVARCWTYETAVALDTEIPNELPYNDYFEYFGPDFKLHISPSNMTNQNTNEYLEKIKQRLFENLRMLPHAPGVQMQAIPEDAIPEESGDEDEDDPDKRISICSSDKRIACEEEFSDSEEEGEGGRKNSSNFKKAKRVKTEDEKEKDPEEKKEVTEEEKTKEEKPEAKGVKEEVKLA
# PPARG: Peroxisome proliferator-activated receptor gamma (PPARG, Homo sapiens, UniProt P37231)
# UniProt P37231, sequence (whole entry, looked up): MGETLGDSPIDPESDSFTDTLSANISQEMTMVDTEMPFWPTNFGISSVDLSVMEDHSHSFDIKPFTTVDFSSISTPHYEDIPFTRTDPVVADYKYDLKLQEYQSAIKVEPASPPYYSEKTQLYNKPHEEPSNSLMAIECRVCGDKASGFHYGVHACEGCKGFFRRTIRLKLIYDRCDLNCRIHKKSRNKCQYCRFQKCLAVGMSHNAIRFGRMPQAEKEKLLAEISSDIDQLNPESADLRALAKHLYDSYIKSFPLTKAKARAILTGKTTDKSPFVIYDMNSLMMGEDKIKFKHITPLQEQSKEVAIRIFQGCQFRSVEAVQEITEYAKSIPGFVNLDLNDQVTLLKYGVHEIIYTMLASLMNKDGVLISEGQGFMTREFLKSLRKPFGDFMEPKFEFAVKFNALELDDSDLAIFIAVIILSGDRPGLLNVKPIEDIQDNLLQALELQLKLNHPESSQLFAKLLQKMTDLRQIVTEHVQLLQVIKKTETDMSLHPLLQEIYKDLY
# UniProt P40306, sequence (whole entry, looked up): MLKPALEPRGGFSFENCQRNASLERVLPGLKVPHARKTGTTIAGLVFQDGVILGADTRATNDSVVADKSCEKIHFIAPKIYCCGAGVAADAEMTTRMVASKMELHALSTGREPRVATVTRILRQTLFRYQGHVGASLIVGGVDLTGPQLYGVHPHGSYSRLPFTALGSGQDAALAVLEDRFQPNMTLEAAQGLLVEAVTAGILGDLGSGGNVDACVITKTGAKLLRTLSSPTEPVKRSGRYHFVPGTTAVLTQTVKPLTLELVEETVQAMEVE
# UniProt P18421, sequence (whole entry, looked up): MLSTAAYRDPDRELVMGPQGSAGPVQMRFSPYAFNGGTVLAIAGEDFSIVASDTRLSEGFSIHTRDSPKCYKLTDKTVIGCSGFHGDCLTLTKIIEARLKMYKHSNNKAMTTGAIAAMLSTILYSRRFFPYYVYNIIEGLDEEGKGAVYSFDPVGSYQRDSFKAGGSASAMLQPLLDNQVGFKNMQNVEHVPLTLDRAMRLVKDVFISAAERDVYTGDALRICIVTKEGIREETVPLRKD
# UniProt Q9UQL6, sequence (whole entry, unmodified, looked up): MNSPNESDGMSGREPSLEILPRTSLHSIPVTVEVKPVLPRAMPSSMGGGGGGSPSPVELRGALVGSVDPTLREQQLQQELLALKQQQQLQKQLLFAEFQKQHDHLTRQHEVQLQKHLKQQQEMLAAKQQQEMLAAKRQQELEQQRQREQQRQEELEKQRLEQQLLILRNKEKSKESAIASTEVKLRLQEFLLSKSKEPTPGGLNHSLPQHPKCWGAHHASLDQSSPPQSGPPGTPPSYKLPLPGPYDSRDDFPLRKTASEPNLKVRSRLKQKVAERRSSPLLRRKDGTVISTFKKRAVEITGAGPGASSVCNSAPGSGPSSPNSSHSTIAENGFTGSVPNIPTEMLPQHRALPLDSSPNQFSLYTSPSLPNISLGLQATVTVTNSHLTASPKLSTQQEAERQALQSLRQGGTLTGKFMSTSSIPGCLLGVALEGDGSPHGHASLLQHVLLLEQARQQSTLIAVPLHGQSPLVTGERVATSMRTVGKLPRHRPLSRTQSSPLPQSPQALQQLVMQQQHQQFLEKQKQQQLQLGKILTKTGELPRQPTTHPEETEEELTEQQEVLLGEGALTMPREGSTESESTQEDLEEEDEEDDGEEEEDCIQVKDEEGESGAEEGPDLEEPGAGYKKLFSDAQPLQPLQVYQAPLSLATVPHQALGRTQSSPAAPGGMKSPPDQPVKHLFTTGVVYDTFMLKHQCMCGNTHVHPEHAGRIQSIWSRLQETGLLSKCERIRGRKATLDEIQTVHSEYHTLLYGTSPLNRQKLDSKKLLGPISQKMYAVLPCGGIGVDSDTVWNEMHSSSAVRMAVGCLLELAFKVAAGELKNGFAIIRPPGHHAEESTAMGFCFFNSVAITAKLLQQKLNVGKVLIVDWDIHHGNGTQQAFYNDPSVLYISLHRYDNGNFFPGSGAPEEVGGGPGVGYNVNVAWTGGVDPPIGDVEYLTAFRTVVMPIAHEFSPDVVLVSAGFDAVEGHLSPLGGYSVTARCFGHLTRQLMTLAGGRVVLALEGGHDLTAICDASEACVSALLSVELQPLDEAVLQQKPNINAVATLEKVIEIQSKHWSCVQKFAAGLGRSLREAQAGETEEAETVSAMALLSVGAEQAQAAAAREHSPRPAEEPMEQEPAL
# UniProt P43358, sequence (whole entry, looked up): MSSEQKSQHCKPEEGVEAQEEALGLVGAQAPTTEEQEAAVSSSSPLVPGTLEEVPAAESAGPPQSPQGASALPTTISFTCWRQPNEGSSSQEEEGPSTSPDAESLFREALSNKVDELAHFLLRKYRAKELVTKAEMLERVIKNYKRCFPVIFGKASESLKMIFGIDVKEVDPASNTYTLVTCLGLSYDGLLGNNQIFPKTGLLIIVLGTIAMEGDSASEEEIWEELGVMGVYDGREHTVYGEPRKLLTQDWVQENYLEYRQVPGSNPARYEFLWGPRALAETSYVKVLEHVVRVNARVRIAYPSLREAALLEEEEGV
# UniProt Q06418, sequence (whole entry, looked up): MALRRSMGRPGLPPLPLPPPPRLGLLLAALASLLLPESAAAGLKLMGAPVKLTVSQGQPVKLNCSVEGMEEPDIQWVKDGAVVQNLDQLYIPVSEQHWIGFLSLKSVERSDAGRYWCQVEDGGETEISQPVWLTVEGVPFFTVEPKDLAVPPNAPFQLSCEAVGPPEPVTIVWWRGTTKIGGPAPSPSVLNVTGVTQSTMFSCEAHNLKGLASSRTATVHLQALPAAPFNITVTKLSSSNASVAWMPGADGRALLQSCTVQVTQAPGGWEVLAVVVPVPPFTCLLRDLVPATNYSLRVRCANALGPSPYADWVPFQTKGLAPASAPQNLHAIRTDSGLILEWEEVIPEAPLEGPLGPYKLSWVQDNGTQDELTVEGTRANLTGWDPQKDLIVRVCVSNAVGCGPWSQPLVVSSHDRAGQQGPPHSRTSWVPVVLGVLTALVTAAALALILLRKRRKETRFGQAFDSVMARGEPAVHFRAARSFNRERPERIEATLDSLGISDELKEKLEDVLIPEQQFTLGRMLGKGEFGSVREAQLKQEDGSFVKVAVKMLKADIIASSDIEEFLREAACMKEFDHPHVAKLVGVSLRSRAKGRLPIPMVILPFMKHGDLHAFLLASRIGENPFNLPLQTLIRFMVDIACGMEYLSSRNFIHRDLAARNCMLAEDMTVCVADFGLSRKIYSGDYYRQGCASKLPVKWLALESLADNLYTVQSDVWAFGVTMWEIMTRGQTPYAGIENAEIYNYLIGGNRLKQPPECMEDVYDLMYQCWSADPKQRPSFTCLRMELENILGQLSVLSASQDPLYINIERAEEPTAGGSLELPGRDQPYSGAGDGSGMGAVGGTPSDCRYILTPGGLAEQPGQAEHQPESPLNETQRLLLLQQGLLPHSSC
# UniProt Q9NQR1, sequence (whole entry, looked up): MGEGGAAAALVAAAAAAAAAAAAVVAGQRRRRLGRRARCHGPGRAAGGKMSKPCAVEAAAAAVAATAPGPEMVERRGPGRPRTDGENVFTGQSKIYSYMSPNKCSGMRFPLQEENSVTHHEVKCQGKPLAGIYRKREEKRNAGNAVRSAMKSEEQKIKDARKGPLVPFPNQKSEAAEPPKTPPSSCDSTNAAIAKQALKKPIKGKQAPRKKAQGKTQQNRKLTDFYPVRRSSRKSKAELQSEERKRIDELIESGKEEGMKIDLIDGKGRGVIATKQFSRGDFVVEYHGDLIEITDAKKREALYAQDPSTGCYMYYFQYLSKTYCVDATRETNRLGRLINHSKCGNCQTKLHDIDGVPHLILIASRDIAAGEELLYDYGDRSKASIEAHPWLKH
Compound,target or system,assay,system,conditions,scale,measurement,result
O=C(CCNC(=O)CNC(=O)CC(c1ccccc1)(c1ccccc1)c1ccccc1)NCC1CCN(C(=O)c2ccc(F)cc2)CC1,CHRM2,"ligand displacement, radioligand",,cell membranes,,IC50,> 30000 nM
Cc1cccc(C2CC(=O)N2S(=O)(=O)c2cccc(Cl)c2)c1 (stereo not shown),Rhomboid protease AarA,"enzyme activity, inhibitor, fluorescence",,,,IC50,12000 nM
Cc1cc(C)c(S(=O)(=O)N(CC(=O)O)c2ccc(Nc3ccnc(N4CCCC4)n3)cc2)c(C)c1,"Mitogen-activated protein kinase 1 (MAPK1, Homo sapiens, UniProt P28482)","enzyme activity, inhibitor",,,,IC50,> 100000 nM
COC(=O)CCCCCCCNC(=O)c1ccc(Nc2ncc(F)c(-c3cc(F)c4nc(C)n(C(C)C)c4c3)n2)cc1,HDAC1,"enzyme activity, inhibitor",,,,IC50,> 1000 nM
NCCNC(=O)[C@H](CC1CCCCC1)NC(=O)c1ccc(CNc2ccccn2)s1,"Protein phosphatase 1D (PPM1D, Homo sapiens, UniProt O15297)","enzyme activity, inhibitor",,,,IC50,365 nM
Cc1ncsc1-c1ccc(C(C)NC(=O)C2CC(O)CN2C(=O)C(NC(=O)CCCCCCCCCCN2CCCC(Nc3ncc(Cl)c(Nc4ccccc4S(=O)(=O)C(C)C)n3)C2)C(C)(C)C)cc1 (stereo not shown),22Rv1,"RNA-seq, item: LNCRNA-ATB",,concentration not given,relative to: DMSO,log2 fold change,-3.24
Cc1c(Cc2ccc(OC(C)C(=O)O)cc2)c2ccc(C(=O)NC(C)c3cccc(C4CC4)c3)cc2n1C (mixture of isomers),PPARG,"ligand displacement, TR-FRET",,,,IC50,38 nM
O=C1CCC(N2C(=O)c3ccc(N4CC(C(=O)N5CC(CCN6CCC(CNC(=O)c7cccc(-c8noc(C(F)(F)F)n8)c7)(c7nc(-c8ccccc8)cs7)CC6)C5)C4)cc3C2=O)C(=O)N1 (stereo not shown),"Histone deacetylase 5 (HDAC5, Homo sapiens, UniProt Q9UQL6)","enzyme activity, inhibitor",,,,IC50,6140 nM
Cc1c(Cc2ccc(OC(C)(C)C(=O)O)cc2)c2ccc(C(=O)N[C@@H](C)c3ccc(C(C)C)cc3)cc2n1C,PPARG,"ligand displacement, TR-FRET",,,,IC50,39 nM
C=CC(=O)Nc1cccc(Cn2ncc3cnc(Nc4cnn(CCOC)c4)nc32)c1,ERK3 human,"binding, KINOMEscan",,100 nM,lower = stronger binding,percent of control,94%
O=C1CC(c2ccccc2)N1S(=O)(=O)c1cccc(-c2ccccc2)c1 (stereo not shown),Rhomboid protease AarA,"enzyme activity, inhibitor, fluorogenic peptide",,23 min pre-incubation,,IC50,33000 nM
O=C(Cc1ccc(OCc2ccccc2)cc1)NC1(C(=O)O)CCN(C(=O)c2ccc(-c3cccc(Cl)c3)cc2)CC1,CHRM2,"antagonist, GloSensor cAMP",,,,IC50,> 10000 nM
C=C(NC(=O)c1csc(-c2nc3c(cc2O)-c2nc(cs2)C(=O)NC(C(C)O)C(=O)NC(=C(C)OC)c2nc(cs2)C(=O)NC2c4nc(cs4)C(=O)NC(COC(=O)c4c5c6c(cccc6n4O)COC(=O)C(OC4CC(C)(O)C(N(C)C)C(C)O4)C2OC5)c2nc-3cs2)n1)C(N)=O (stereo not shown),,,"ICR mice, Streptococcus pneumoniae ATCC 49169 infected, immunocompromised, blood","intravenous, 2 mg/kg/day twice daily",,Cmax,91.3 ng/mL
Cc1cc(C)nc(NC(=S)N2CCN(Cc3ccc(C(F)(F)F)cc3)CC2)c1,"Glyceraldehyde-3-phosphate dehydrogenase (GAPDH, Homo sapiens, UniProt P04406)","enzyme activity, inhibitor",,,,IC50,> 100000 nM
CN1CCCC1C(=O)NC(Cc1ccc(-n2cccn2)cc1)B(O)O (stereo not shown),"Proteasome subunit beta type-9 / Proteasome subunit beta type-10 (Homo sapiens, UniProt P28065+P40306)","β1i activity, inhibitor",,"immunoproteasome, added: Ac-PAL-AMC",,IC50,6300 ± 2100 nM
COC1CN([C@H]2CC[C@H]([C@@]3(C)Oc4c(Cl)cc(C(=O)NCc5c(SC)cc(C)[nH]c5=O)c(C)c4O3)CC2)C1,,"RNA-seq, item: SGIP1 mouse homolog","mouse, HT-1376 xenograft, whole blood",dose not given,relative to: vehicle,log2 fold change,1.47
O=C(Nc1ccc(F)cc1)NC1CCN(c2ncnc3nc[nH]c23)C1 (stereo not shown),Plasmodium falciparum,"parasite growth, parasite lactate dehydrogenase",NF54,,,IC50,> 6000 nM
Cc1c(Cc2ccc(OC(C)(C)C(=O)O)cc2)c2ccc(C(=O)N[C@@H](C)c3ccc(C(C)(C)C)cc3)cc2n1C,PPARG,"ligand displacement, TR-FRET",,,,IC50,503 nM
COc1ccc(OC)c2c1CN(c1cn[nH]c(=O)c1Cl)CC2O (stereo not shown),Plasmodium falciparum,"parasite growth, parasite lactate dehydrogenase",NF54,,,IC50,> 6000 nM
Cc1c(Cc2ccc(Cl)c(OC(C)C(=O)O)c2)c2ccc(C(=O)NC(C)c3ccc(C(C)(C)C)cc3)cc2n1CC1CCC1 (stereo not shown),PPARG,"ligand displacement, TR-FRET",,,,IC50,0.66 nM
COc1c(Cl)cccc1Nc1c(-c2ccncc2C#C[C@@]2(C)CCCN2C(=O)/C=C/CN(C)C)[nH]c2c1C(=O)NCC2,"Receptor tyrosine-protein kinase erbB-4 (ERBB4, Homo sapiens, UniProt Q15303)",,,,,IC50,27 nM
Cc1cc(C(=O)NCC(F)c2ccc(Cl)cc2Cl)c(Oc2cccc(C3CC3)c2)nn1 (stereo not shown),"serine palmitoyltransferase (Zymoseptoria tritici, UniProt F9X349+F9XMN6)",,,,,IC50,1230 ± 155 nM
Cc1ccc(C2CC(=O)N2S(=O)(=O)c2cccc(Cl)c2)cc1 (stereo not shown),Rhomboid protease AarA,"enzyme activity, inhibitor, fluorescence",,,,IC50,21000 nM
CCn1c(C)c(Cc2ccc(Cl)c(O[C@H](C)C(=O)O)c2)c2ccc(C(=O)N[C@@H](C)c3ccc(C(C)(C)C)cc3)cc21,PPARG,"ligand displacement, TR-FRET",,,,IC50,7.17 nM
Nc1ncc(-c2cc(-c3cnn(CC(F)(F)F)c3)ncc2F)nc1C(=O)NC1CNCC(F)C1 (stereo not shown),CSNK1D,KINOMEscan,,1 µM,relative to: DMSO control,remaining binding,86%
CC[C@H](C)[C@@H]1NC(=O)[C@H](Cc2ccccc2)NC(=O)CCSCc2cccc(c2)CSCCNC(=O)[C@H](C)NC(=O)[C@H](Cc2ccc(O)cc2)NC(=O)[C@H](CC(=O)O)NC(=O)[C@H](Cc2ccc(F)cc2)NC(=O)[C@H](CC(C)C)NC(=O)[C@H](CCCCN)NC1=O,"Melanoma-associated antigen 4, MAGE homology domain (Homo sapiens, UniProt P43358)","binding, inhibitor, TR-FRET displacement",,added: Alexa647-MTP-1,,IC50,851 ± 190 nM
CCN(CC)CC(=O)Nc1cccc(-n2cc(-c3ccc4ccc(-c5cn(-c6cccc(NC(=O)CN(CC)CC)c6)nn5)cc4c3)nn2)c1,"Serine/threonine-protein kinase pim-2 (PIM2, Homo sapiens, UniProt Q9P1W9)","enzyme activity, inhibitor",,,,IC50,> 10000 nM
Cc1c(Cc2cccc(OC(C)(C)C(=O)O)c2)c2ccc(C(=O)N[C@@H](C)c3cccc(C(C)(C)C)c3)cc2n1CC(C)(C)C,"Peroxisome proliferator-activated receptor gamma, ligand-binding domain (PPARG, Homo sapiens, UniProt P37231)","reporter gene, luciferase reporter","HEK293T, Gal4-PPARγ LBD",,,IC50,5510 nM
Cc1ccc(CNC(=O)[C@@H](NC(=O)[C@H](CCc2ccccc2)NC(=O)[C@@H](NC(=O)c2cnc(C)cn2)C(C)(C)C)C(C)C)cc1,"Psmb1/Psmb8 (Rattus norvegicus, UniProt P18421+P28064)","enzyme activity, inhibitor",,"added: Ac-ANW-aminocoumarin, PA28α 12 nM",,IC50,510 nM
CC(C)Oc1cccc(NC(=O)C(C(F)(F)F)C(F)(F)F)c1,Rhomboid protease AarA,"enzyme activity, inhibitor, fluorescence",,,,IC50,10000 nM
CN1CCN(C(=O)c2ccc(-c3cc4nccc(-c5ccc6cnccc6c5)c4o3)cc2)CC1,"Serine/threonine-protein kinase TBK1 (TBK1, Homo sapiens, UniProt Q9UHD2)","enzyme activity, inhibitor",,,,IC50,> 10000 nM
O=C1C(Cl)=C(NCCN2CCOCC2)C(=O)c2ncccc21,"N-lysine methyltransferase KMT5A (KMT5A, Homo sapiens, UniProt Q9NQR1)","enzyme activity, inhibitor, radiometric",,,,IC50,370 nM
Cc1c(Cc2ccc(Cl)c(O[C@@H](C)C(=O)O)c2)c2ccc(C(=O)N[C@@H](C)c3cc(F)cc(C(C)(C)C)c3)cc2n1C,PPARG,"ligand displacement, TR-FRET",,,,IC50,5.11 nM
Cc1nnc(-c2ccc(CC(=O)NCCOCCOCCOCCOCC(=O)NC(CCN3C4CCC3CC(n3c(C)nnc3C(C)C)C4)c3ccccc3)cc2)nn1 (stereo not shown),"C-C chemokine receptor type 5 (CCR5, Homo sapiens, UniProt P51681)","calcium mobilization, antagonist",HEK-293T,"2 h preincubation, top constrained to 1, added: 0.1 µM PSC-RANTES",,IC50,44.7 nM
CN(Cc1ccccc1)C(=O)c1ccccc1NC(=O)C(C(F)(F)F)C(F)(F)F,Rhomboid protease AarA,"enzyme activity, inhibitor, fluorescence",,,,IC50,5400 nM
COC(=O)CCCCCCC(=O)Nc1ccc(Nc2ncc(F)c(-c3cc(F)c4nc(C)n(C(C)C)c4c3)n2)cc1,HDAC1,"enzyme activity, inhibitor",,,,IC50,> 1000 nM
O=C(Nc1ccccc1OCc1ccccc1)C(C(F)(F)F)C(F)(F)F,Rhomboid protease AarA,"enzyme activity, inhibitor, fluorescence",,,,IC50,2000 nM
Cc1c(Cc2ccc(Cl)c(OCC(=O)O)c2)c2ccc(C(=O)NCc3ccc(C(C)(C)C)cc3)cc2n1CC(C)C,PPARG,"ligand displacement, TR-FRET",,,,IC50,0.79 nM
Cc1nn(-c2cccc(N)c2)c(=O)c2cnc(Nc3ccc(N4CCNCC4)cc3)nc12,"Tyrosine-protein kinase receptor TYRO3 (TYRO3, Homo sapiens, UniProt Q06418)","enzyme activity, inhibitor",,,,IC50,2070 nM
O=C(NCCCN1CCCC1=O)c1ccccc1NC(=O)C(C(F)(F)F)C(F)(F)F,Rhomboid protease AarA,"enzyme activity, inhibitor, fluorescence",,,,IC50,19000 nM

# Excerpt of the above:
Compound,target or system,assay,system,conditions,scale,measurement,result
COc1ccc(OC)c2c1CN(c1cn[nH]c(=O)c1Cl)CC2O (stereo not shown),Plasmodium falciparum,"parasite growth, parasite lactate dehydrogenase",NF54,,,IC50,> 6000 nM
Cc1cc(C)c(S(=O)(=O)N(CC(=O)O)c2ccc(Nc3ccnc(N4CCCC4)n3)cc2)c(C)c1,"Mitogen-activated protein kinase 1 (MAPK1, Homo sapiens, UniProt P28482)","enzyme activity, inhibitor",,,,IC50,> 100000 nM
O=C1C(Cl)=C(NCCN2CCOCC2)C(=O)c2ncccc21,"N-lysine methyltransferase KMT5A (KMT5A, Homo sapiens, UniProt Q9NQR1)","enzyme activity, inhibitor, radiometric",,,,IC50,370 nM
O=C(CCNC(=O)CNC(=O)CC(c1ccccc1)(c1ccccc1)c1ccccc1)NCC1CCN(C(=O)c2ccc(F)cc2)CC1,CHRM2,"ligand displacement, radioligand",,cell membranes,,IC50,> 30000 nM
C=C(NC(=O)c1csc(-c2nc3c(cc2O)-c2nc(cs2)C(=O)NC(C(C)O)C(=O)NC(=C(C)OC)c2nc(cs2)C(=O)NC2c4nc(cs4)C(=O)NC(COC(=O)c4c5c6c(cccc6n4O)COC(=O)C(OC4CC(C)(O)C(N(C)C)C(C)O4)C2OC5)c2nc-3cs2)n1)C(N)=O (stereo not shown),,,"ICR mice, Streptococcus pneumoniae ATCC 49169 infected, immunocompromised, blood","intravenous, 2 mg/kg/day twice daily",,Cmax,91.3 ng/mL
